Measurements gathered from unrelated publications.
Lines come from different studies, so protocols differ. Several values in a cell are separate wells, animals, samples, runs or records. Numbers after ± are the reported error.

Structure (SMILES)	target or system	test	test system	setting	scale	measurement	value
Cc1nc2cc(Br)ccn2c1C(=O)NCc1ccc2oc(-c3ccc(OC(F)(F)F)cc3)nc2c1	Mycolicibacterium smegmatis			72 h		MIC	> 25 µM
O=C(O)C(Cl)Cl.OCCN(CCO)CCO	Amaranthus retroflexus	herbicidal activity		15 mg/mL, 21 days, post-emergence greenhouse		inhibition	-47%
Cc1cc(Oc2nc(N3CC[C@@H](c4ccncc4)C3)ncc2F)[nH]n1	Mycobacterium tuberculosis	OD	H37Rv PurF CRISPRi knockdown	0.5 µM, with: anhydrotetracycline low		normalised growth	1% and 2%
CC[C@H](C)[C@H](NC(=O)[C@H](CO)NC(=O)[C@H](Cc1ccc(O)cc1)NC(=O)[C@H](Cc1ccc(O)cc1)NC(=O)[C@H](CC(N)=O)NC(=O)CNC(=O)[C@H](CO)NC(=O)[C@H](Cc1ccc(O)cc1)NC(=O)[C@H](CO)NC(=O)[C@H](CO)NC(=O)[C@H](CC(N)=O)NC(=O)COCCOCCNC(=O)CN1CCN(CC(=O)O)CCN(CC(=O)O)CCN(CC(=O)O)CC1)C(=O)N[C@@H](CC(C)C)C(N)=O [copper-64 labelled]		dynamic PET	tamoxifen-induced PDAC mouse model, metastases	1.6 min, CLDN4-expressing tumours		maximum metastasis uptake	22.1 %IA/cc
O=C(NCc1cc(F)cc(F)c1)[C@@]1(O)CCN(c2ccc3[nH]ccc3c2)C1=O			sample C PDX mouse	dose not given, RTV endpoint 500%		median survival time	42 days
COc1ccc2c(c1)c(CC(=O)[Se]CC(=O)Nc1cccc(C(F)(F)F)c1)c(C)n2C(=O)c1ccc(Cl)cc1	NCI60 colon subpanel	NCI60 five-dose screen				CC50	26.2 µM
Cc1ccc(N2CC3CCC(C2)N3C)cc1C(=O)N[C@H](C)c1cc(-c2cnn(C)c2)nc2ccccc12	African green monkey cells			250 µM		viability	0.766%
COc1ccccc1-c1ccncc1C(=O)Nc1nnc(OCc2ccc(Cl)cc2)s1	HCT-116 BRCA2 wild-type			2 µM	relative to: untreated	colony survival	96.8%
CCc1nc2ccc(C(F)(F)F)cn2c1C(=O)NCc1ccc2oc(-c3ccc(OC(F)(F)F)cc3)nc2c1	Mycolicibacterium smegmatis					MIC90	> 100 µM
COc1ccccc1-c1n[nH]c2nc(NC3CCN(C(=O)Cc4ccc(F)cc4F)CC3)ncc12		bead binding, competition bead pull-down, measured: LINJ.35.5300	Leishmania donovani extract	10 µM	relative to: vehicle	relative abundance	1.15
CC[C@H](C)[C@@H]1NC(=O)[C@H](Cc2c[nH]cn2)NC(=O)[C@H](CC(N)=O)NC(=O)[C@H](CO)NC(=O)[C@H](CCC(N)=O)NC(=O)[C@@H](NC(=O)CN)CSSC[C@@H]2NC(=O)CNC(=O)[C@H](C)NC(=O)[C@H](CC(C)C)NC(=O)[C@@H]3CSSC[C@@H](C(=O)NCC(=O)O)NC(=O)[C@H](C)NC(=O)CNC(=O)[C@H](CC(N)=O)NC(=O)[C@@H]4CCCN4C(=O)CNC(=O)[C@H](CSSC[C@H](NC(=O)[C@H](CCCNC(=N)N)NC(=O)[C@H](CC(N)=O)NC(=O)[C@H](Cc4c[nH]cn4)NC(=O)[C@H](CCCCN)NC(=O)[C@H](CC(C)C)NC1=O)C(=O)N[C@@H](CCCCN)C(=O)N[C@@H](CCC(N)=O)C(=O)N[C@@H](CC(=O)O)C(=O)N[C@@H](CO)C(=O)N[C@@H](CC(=O)O)C(=O)N3)NC(=O)[C@H](C(C)C)NC2=O	HEK293, Wnt1-transfected	Wnt signalling				IC50	> 100 µM
CC(C)CC(C(=O)N1CC2(CC1C#N)C(=O)Nc1ccccc12)N(C)C(=O)c1cc2c(F)cc(F)c(F)c2[nH]1 (stereo not drawn)	Human coronavirus 229E	cytopathic effect	MRC5	41.13 nM		inhibition	100%
CC[C@H](C)[C@H](NC(=O)[C@H](CC(C)C)NC(=O)[C@H](CC(C)C)NC(=O)[C@H](CC(=O)O)NC(=O)[C@@H](NC(=O)[C@H](CCC(=O)O)NC(=O)[C@H](CCCCN)NC(=O)[C@H](Cc1ccc(O)cc1)NC(=O)[C@H](CCCCN)NC(=O)[C@H](Cc1c[nH]cn1)NC(=O)CNC(=O)CN)[C@@H](C)O)C(=O)N[C@@H](CC(C)C)C(=O)N[C@@H](Cc1ccccc1)C(=O)N[C@@H](CCCCN)C(=O)N[C@@H](CC(=O)O)C(=O)N[C@@H](CC(=O)O)C(=O)N[C@@H](Cc1ccc(O)cc1)C(=O)N[C@@H](Cc1ccccc1)C(=O)N[C@@H](C)C(=O)N[C@@H](CCCCN)C(=O)N[C@@H](CCCCN)C(=O)N[C@@H](CC(N)=O)C(=O)N[C@@H](CCC(=O)O)C(=O)N[C@@H](CCC(=O)O)C(=O)N[C@@H](CCCNC(=N)N)C(=O)N[C@@H](CCCCN)C(N)=O	HCV IRES RNA	RNA cleavage, fluorescence	hepatitis C virus	10 µM, with: H2O2 and ascorbate 1 mM, fluorescein-labelled HCV RNA 1 µM		initial rate	509 ± 122 nM/min
Cc1ccc(OCCN(C)C)cc1C(=O)N[C@H](C)c1cc(-c2cccnc2N2CCCC2)nc2ccccc12	Vero E6			250 µM		viability	0% and -0.228%
NC[C@]1(CC(=O)O)CC[C@@H]([18F])CC1		PET kinetic modelling	rhesus monkey, whole brain	dose not given, with: gabapentin pre-injection	relative to: baseline	VT change	11%
CCN(CC)C(=O)[C@@H]1C=C2c3cccc4c3c(cn4C(=O)c3ccco3)C[C@H]2N(C)C1		magnetometer detection	mouse C57BL/6J male	intraperitoneal, dose not given, lower doses, 5 min blocks		time to peak head-twitch response	10 to 15 min
CN1C(=O)C(C2C3=C(CCCC3=O)Oc3ccc(Cl)cc32)C(=O)N(C)C1=O (stereo not drawn)	3T3-L1 pre-adipocytes	cell viability, MTT		72 h		IC50	55.6 ± 2.03 µg/mL
O=C(O)c1ccc(-c2nc(-c3ccccc3Cl)c3sccn23)cc1			C57BL/6 mice	dose not given, day 4, basal hematopoiesis		platelet count change	106% and 93.9% and 90.7% and 132%
CSCC[C@H](NC(=O)[C@@H]1CSSC[C@H](NC(=O)[C@H](CCCCN)NC(=O)[C@H](Cc2ccc(O)cc2)NC(=O)CNC(=O)[C@@H](N)CC(C(=O)O)C(=O)O)C(=O)N[C@@H](C(C)C)C(=O)N[C@H](Cc2c[nH]c3ccccc23)C(=O)N[C@@H](CCCCN)C(=O)N[C@@H]([C@@H](C)O)C(=O)N1)C(=O)N1C[C@H](O)C[C@H]1C(=O)N[C@@H](C)C(=O)O		calcium imaging	zebrafish larvae CNS neurons	5 µM	relative to: cells	responding neurons	14.1 ± 2.64%
CCc1nc2ccc(OC(F)(F)F)cn2c1C(=O)NCc1ccc2oc(-c3ccc(OC(F)(F)F)cc3)nc2c1	Mycolicibacterium smegmatis			72 h		MIC	> 50 µM
O=C1NC2(CC2)COc2ncc(F)cc2[C@H]2COCCN2c2ccn3ncc1c3n2			Sprague-Dawley rat, male, spleen	oral, 2.5 mg/kg/day, 4 weeks dosing, end of recovery		organ-to-body weight ratio	0.206 ± 0.028%
CC[C@@H]1CN2CCc3c([nH]c4cccc(OC)c34)[C@@H]2C[C@@H]1/C(=C\OC)C(=O)OC	rabbit anti-mitragynine polyclonal IgG	antigen binding, competitor, competitive indirect ELISA	10% methanol	30 min both antibody incubations		IC50	1.25 µg/mL and 1 µg/mL
COc1ccccc1-c1n[nH]c2nc(N[C@H]3CC[C@H](NS(=O)(=O)CC(C)C)CC3)ncc12		bead binding, competition bead pull-down, measured: LMJF.35.3700	Leishmania donovani extract	10 µM	relative to: vehicle	relative abundance	1.07
CC(C)(C)C(=O)OCOP(=O)(OCOC(=O)C(C)(C)C)C1CCCN(O)C1=O (stereo not drawn)	U-251					log GI50	-6.47 log M
CSCC[C@H](N)C(=O)N[C@@H](C)C(=O)N[C@@H](CCCNC(=N)N)C(=O)N[C@@H](CCCNC(=N)N)C(=O)N[C@@H](CC(=O)O)C(=O)N[C@@H](CCCCN)C(=O)N[C@H](C(=O)N[C@@H](CC(=O)O)C(=O)N[C@@H](Cc1ccccc1)C(=O)N[C@@H](C)C(=O)N[C@@H](CCCNC(=N)N)C(=O)N[C@@H](CCCNC(=N)N)C(=O)N[C@@H](CCCNC(=N)N)C(=O)N[C@@H](CCCNC(=N)N)C(=O)NCCCCCC(=O)NCCCCC(NC(=O)CCCCCNC(=O)[C@H](CCCNC(=N)N)NC(=O)[C@H](CCCNC(=N)N)NC(=O)[C@H](CCCNC(=N)N)NC(=O)[C@H](CCCNC(=N)N)NC(=O)[C@H](C)NC(=O)[C@H](Cc1ccccc1)NC(=O)[C@H](CC(=O)O)NC(=O)[C@@H](NC(=O)[C@H](CCCCN)NC(=O)[C@H](CC(=O)O)NC(=O)[C@H](CCCNC(=N)N)NC(=O)[C@H](CCCNC(=N)N)NC(=O)[C@H](C)NC(=O)[C@@H](N)CCSC)[C@@H](C)O)C(=O)NCCCCC(NC(=O)C(CCCCNC(=O)CCCCCNC(=O)[C@H](CCCNC(=N)N)NC(=O)[C@H](CCCNC(=N)N)NC(=O)[C@H](CCCNC(=N)N)NC(=O)[C@H](CCCNC(=N)N)NC(=O)[C@H](C)NC(=O)[C@H](Cc1ccccc1)NC(=O)[C@H](CC(=O)O)NC(=O)[C@@H](NC(=O)[C@H](CCCCN)NC(=O)[C@H](CC(=O)O)NC(=O)[C@H](CCCNC(=N)N)NC(=O)[C@H](CCCNC(=N)N)NC(=O)[C@H](C)NC(=O)[C@@H](N)CCSC)[C@@H](C)O)NC(=O)CCCCCNC(=O)[C@H](CCCNC(=N)N)NC(=O)[C@H](CCCNC(=N)N)NC(=O)[C@H](CCCNC(=N)N)NC(=O)[C@H](CCCNC(=N)N)NC(=O)[C@H](C)NC(=O)[C@H](Cc1ccccc1)NC(=O)[C@H](CC(=O)O)NC(=O)[C@@H](NC(=O)[C@H](CCCCN)NC(=O)[C@H](CC(=O)O)NC(=O)[C@H](CCCNC(=N)N)NC(=O)[C@H](CCCNC(=N)N)NC(=O)[C@H](C)NC(=O)[C@@H](N)CCSC)[C@@H](C)O)C(N)=O)[C@@H](C)O (stereo partly drawn)		micro-CT of femur	mouse C57BL/6 female, RANKL-induced bone loss, femur	intraperitoneal, 130 mg/kg, 50 h, with: RANKL		trabecular separation	1290 µm
Cc1cc(C(=O)Nc2nc3cccc(C)c3n2[C@H]2CCCCN(C(=O)/C=C/CN(C)C)C2)ccn1	Trypanosoma brucei	cell growth, Alamar Blue	2T1 overexpressing Tb927.8.5730		relative to: parental 2T1	EC50 fold shift	0.74 fold and 0.82 fold
CCc1nn(C)c2nc(-c3ccc(C(=O)O)cc3)nc(NCc3ccccc3)c12	Cryptosporidium parvum	parasite growth, immunofluorescence imaging	HCT-8, Iowa	222 nM		inhibition	-11.6% and -2.34%

Repeated from above:
Structure (SMILES)	target or system	test	test system	setting	scale	measurement	value
CCc1nc2ccc(OC(F)(F)F)cn2c1C(=O)NCc1ccc2oc(-c3ccc(OC(F)(F)F)cc3)nc2c1	Mycolicibacterium smegmatis			72 h		MIC	> 50 µM
CC(C)CC(C(=O)N1CC2(CC1C#N)C(=O)Nc1ccccc12)N(C)C(=O)c1cc2c(F)cc(F)c(F)c2[nH]1 (stereo not drawn)	Human coronavirus 229E	cytopathic effect	MRC5	41.13 nM		inhibition	100%
